Results pooled from the literature.
A part holds a random share of what one study measured. Changes are numbered by the printed parent chain.

Series 1
Target: CEP164, C-terminal peptide (human)
Method: DHFR complementation, deep sequencing
Medium: yeast
Setting: single substitutions, model-inferred values
Baseline: wild type
Reading: higher = weaker binding
Parent: PDZK1, PDZ domain 2 (human); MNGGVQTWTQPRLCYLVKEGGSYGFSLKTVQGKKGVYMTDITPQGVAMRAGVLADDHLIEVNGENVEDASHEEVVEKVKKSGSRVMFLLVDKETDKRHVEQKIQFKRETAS; partner HNRVKVYRF
Variant | binding free energy change [kcal/mol]
M48R | 0.0371
K79W | 0.452
V5T | -0.0766
M48L | 0.449
R107W | -0.13
T7W | -0.0112
E76W | 0.0626
K80I | 0.652

Series 2
Target: TAR DNA-binding protein 43, full length, His tag (TARDBP, Homo sapiens, UniProt Q13148, residues 1-414)
Method: RNA Bind-n-Seq
Form: RNA
Medium: in vitro
Tested at: 20 nM
Setting: 6-mer, flanks averaged, single round
Added: 150 mM KCl
Baseline: input library
Reading: higher = stronger binding
Strand | 6-mer enrichment (R)
UCCUGG | 0.856
ACAGAC | 0.678
UGACGU | 0.789
GUGGGA | 4.25
CACUUG | 0.644
GUGGGG | 7.74
UCGUAC | 0.585
UGGGCU | 1.78

Series 3
Target: Interferon regulatory factor 7, full length, phosphomimetic (IRF7, Homo sapiens, UniProt Q92985, residues 1-503, S471D/S472D/S475D/S476D/S477D/S483D/S484D/S487D)
Method: protein-binding microarray
Form: double-stranded DNA, one strand shown
Medium: in vitro
Tested at: 2200 nM top
Setting: 60-bp whole probe
Added: salmon DNA 0.4 mg/ml
Baseline: random background probes
Reading: higher = stronger binding
All sequences stand within: GCCTAGCAC … GTCTTGATTCGCTTGACGCTGCTG
Residues (chain): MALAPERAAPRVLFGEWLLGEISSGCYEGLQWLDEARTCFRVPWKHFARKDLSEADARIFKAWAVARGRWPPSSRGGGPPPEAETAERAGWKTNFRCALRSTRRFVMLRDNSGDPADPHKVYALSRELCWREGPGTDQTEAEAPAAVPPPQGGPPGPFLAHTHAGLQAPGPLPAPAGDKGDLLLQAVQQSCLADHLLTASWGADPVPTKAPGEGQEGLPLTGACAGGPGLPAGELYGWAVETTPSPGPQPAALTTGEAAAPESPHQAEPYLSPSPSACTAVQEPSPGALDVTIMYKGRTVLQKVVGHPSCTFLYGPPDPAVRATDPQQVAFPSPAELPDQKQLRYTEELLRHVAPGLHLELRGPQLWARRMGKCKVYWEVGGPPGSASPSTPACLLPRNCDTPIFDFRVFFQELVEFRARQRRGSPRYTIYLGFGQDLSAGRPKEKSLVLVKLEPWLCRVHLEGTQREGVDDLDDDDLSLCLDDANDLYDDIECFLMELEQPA
Strand | fitted relative affinity
TTAGGAATGGGTATCGGTTAGTGCTAG | 0.0661 z-score
TTAGATCTCAGCTTCGATTAGTGCTAG | 0.261 z-score
TTAGGTATCGACTTTCTGTTAGTGCTA | 2.28 z-score
GACGGACTACTTCTCCTGACGTGCTAG | 0.592 z-score
GACGGACTGTTACTGCTGACGTGCTAG | 0.371 z-score
GACGGTTTCGACTTGCGGGACGTGCTA | 8.85 z-score
TTAGGTCACCTACTGCTTTAGTGCTAG | 0.285 z-score
GATGAACTGAGACTGGAGACGTGCTAG | -0.291 z-score

Single results of other studies
Structure (SMILES) | target | assay | conditions | how to read | measurement | value
COc1cc(C(=O)N2CCC(N3CCN(C)CC3)CC2)ccc1Nc1ncc2c(n1)N(C)c1ccccc1C(=O)N2C | PRKCH | KINOMEscan | 10 µM | baseline: DMSO control, lower = stronger binding | binding | 100%

For quick reference, copied from above (series 3):
Strand | fitted relative affinity
GATGAACTGAGACTGGAGACGTGCTAG | -0.291 z-score
TTAGGAATGGGTATCGGTTAGTGCTAG | 0.0661 z-score
